Assay results gathered from unrelated publications.
Compare with care: the assays were run in different laboratories. Values joined by “and” are separate records of one study, mostly repeats; a detail may differ. Numbers after ± are the reported error.

Structure (SMILES) | target or system | test | system | setting | scale | endpoint | result
C[C@]12CC[C@@H]3c4ccc(O)cc4CC[C@H]3[C@@H]1CC[C@@H]2O | – | RT-qPCR, refers to: CO | Arabidopsis thaliana ING1:FLAG seedlings | 20 µM, 6 h after treatment, sampled at ZT12, replicate rep1, unit not given | baseline: TUB2 | mRNA level | 0.0835
[H]/N=C(/NCCCCC)N/N=C/c1c[nH]c2ccc(OC)cc12 | Toxoplasma gondii | parasite growth, luciferase reporter | HFF, tachyzoite | 72 h | – | EC90 | 5.85 µM
Cc1n[nH]c2ccc(-c3cc(OC[C@@H](N)Cc4ccccc4)cnc3-c3ccoc3)cc12 | – | kinase binding, competitor, MIB/MS competition, refers to: SCH9 | Candida albicans cell lysate | 1 µM | baseline: DMSO | log2 fold change | -0.178
C[C@@H](NC(=O)N1C(=O)[C@H](Cc2ccnc(N)c2)[C@H]1C(=O)O)C1CCCCC1 | – | – | human | iv infusion, 1.5 mg/kg/h, 24 h | – | aPTT Emax | 56.8 s
OC(CCN1CCCCC1)(c1ccccc1)C1CC2C=CC1C2 (centres unmarked) | – | resting-state EEG | healthy elderly humans | oral, 4 mg, eyes closed, LS mean | baseline: baseline | change in EEG Alpha2-power Pz-O2 | 31.9%
C[C@H](Oc1ccc(Br)cc1-c1ccon1)C(=O)O | – | muscle velocity recovery cycles | human, tibialis anterior muscle | 1200 mg single dose, 3.5 h post-dose, frequency ramp, last response at 15 Hz | – | peak amplitude change | 115%
CC(C)NCC(O)c1ccc(O)c(O)c1 (centres unmarked) | – | – | ventricular cardiomyocytes, C57BL/6 mouse | dose not given, 0.216 s | – | sarcomere length | 1.5 µm
C=CCn1c(=O)c2cnc(Nc3ccc(N4CCN(C)CC4)cc3)nc2n1-c1ccc2c(n1)[C@@](O)(CC)CC2 | – | – | LS-513 xenograft, BALB/c nude mice | oral, 60 mg/kg once daily x 21, day 23 | – | tumour volume difference | 1460 ± 147 mm3
O=C(O)CNC(=O)Cc1ccccc1 | – | – | ventricular cardiomyocytes, C57BL/6 mouse | dose not given, 0.084 s | – | sarcomere length | 1.72 µm
C[C@H]1C[C@H]2CSC(N)=N[C@@]2(c2nc(NC(=O)c3ccc(OC(F)F)cn3)cs2)CO1 | – | refers to: Aβx-40 | healthy adults, plasma | 125 mg once daily, day 10 | baseline: placebo | percent change from baseline | -70.8%
Cc1noc(C)c1-c1cc(C(O)(c2ccccn2)c2ccccn2)c2nc(C3CC3)[nH]c2c1 | – | refers to: CCR2 expression | human, peripheral blood | 4 mg, day 1, 1599 study | – | maximum inhibition | 38%
O=C(O[C@]12C[C@H]3C[C@H](C[C@H](C3)C1)C2)c1ccc(NCc2cc(O)ccc2O)cc1 | Toxoplasma gondii | parasite growth | HFF, bradyzoite, alkaline-induced | – | – | EC90 | 1320 µM
COc1ccc(-c2cncc(N[C@@H](C)c3cccc(NC(=O)c4cncc(C)c4)c3)n2)cc1OC | – | refers to: rno-miR-186-5p | rat SU5416/hypoxia model, lung | dose not given, unit not given | baseline: SU5416/hypoxia vehicle | delta delta Ct | -0.11
N#Cc1ccc2c(-c3ccncc3)c(-c3ccc(F)cc3)nn2c1 | – | kinase binding, competitor, MIB/MS competition, refers to: PKH2 | Candida albicans cell lysate | 1 µM | baseline: DMSO | log2 fold change | 0.144
NC(=O)c1cnc2[nH]ccc2c1N[C@@H]1[C@@H]2CC3C[C@H]1C[C@@](O)(C3)C2 | – | flow cytometry | Japanese healthy men, blood | oral, 30 mg twice daily, 72 h after day 7 dose | baseline: baseline | CD8+ central memory change | 0.27%
Cc1c(NC(=O)c2cccnc2)c(=O)n(-c2ccccc2)n1C | – | histology | Dmd C3333Y mice, tibialis anterior | dose not given | – | necrotic area | 3.5% and 5.9% and 4.3% and 5.6% and 6.1%
c1ccc(-c2n[nH]cc2-c2ccnc3ccccc23)nc1 | – | kinase binding, competitor, MIB/MS competition, refers to: RCK2 | Candida albicans cell lysate | 1 µM | baseline: DMSO | log2 fold change | 1.67

Repeated from above:
Structure (SMILES) | target or system | test | system | setting | scale | endpoint | result
C[C@]12CC[C@@H]3c4ccc(O)cc4CC[C@H]3[C@@H]1CC[C@@H]2O | – | RT-qPCR, refers to: CO | Arabidopsis thaliana ING1:FLAG seedlings | 20 µM, 6 h after treatment, sampled at ZT12, replicate rep1, unit not given | baseline: TUB2 | mRNA level | 0.0835
[H]/N=C(/NCCCCC)N/N=C/c1c[nH]c2ccc(OC)cc12 | Toxoplasma gondii | parasite growth, luciferase reporter | HFF, tachyzoite | 72 h | – | EC90 | 5.85 µM
